Measurements of several laboratories.
Parts stem from different laboratories: compare values within a part only. Substitutions count along the parent as printed.

Sample 1 — method: universal PBM; molecule type: double-stranded DNA, one strand shown; matrix: in vitro; concentration: 600 nM; reading: higher = stronger binding; quantity: E-score
Target: Sal-like protein 4, full length isoform A (SALL4, Homo sapiens, UniProt Q9UJQ4, residues 1-1053)
UniProt Q9UJQ4, sequence (whole entry, looked up): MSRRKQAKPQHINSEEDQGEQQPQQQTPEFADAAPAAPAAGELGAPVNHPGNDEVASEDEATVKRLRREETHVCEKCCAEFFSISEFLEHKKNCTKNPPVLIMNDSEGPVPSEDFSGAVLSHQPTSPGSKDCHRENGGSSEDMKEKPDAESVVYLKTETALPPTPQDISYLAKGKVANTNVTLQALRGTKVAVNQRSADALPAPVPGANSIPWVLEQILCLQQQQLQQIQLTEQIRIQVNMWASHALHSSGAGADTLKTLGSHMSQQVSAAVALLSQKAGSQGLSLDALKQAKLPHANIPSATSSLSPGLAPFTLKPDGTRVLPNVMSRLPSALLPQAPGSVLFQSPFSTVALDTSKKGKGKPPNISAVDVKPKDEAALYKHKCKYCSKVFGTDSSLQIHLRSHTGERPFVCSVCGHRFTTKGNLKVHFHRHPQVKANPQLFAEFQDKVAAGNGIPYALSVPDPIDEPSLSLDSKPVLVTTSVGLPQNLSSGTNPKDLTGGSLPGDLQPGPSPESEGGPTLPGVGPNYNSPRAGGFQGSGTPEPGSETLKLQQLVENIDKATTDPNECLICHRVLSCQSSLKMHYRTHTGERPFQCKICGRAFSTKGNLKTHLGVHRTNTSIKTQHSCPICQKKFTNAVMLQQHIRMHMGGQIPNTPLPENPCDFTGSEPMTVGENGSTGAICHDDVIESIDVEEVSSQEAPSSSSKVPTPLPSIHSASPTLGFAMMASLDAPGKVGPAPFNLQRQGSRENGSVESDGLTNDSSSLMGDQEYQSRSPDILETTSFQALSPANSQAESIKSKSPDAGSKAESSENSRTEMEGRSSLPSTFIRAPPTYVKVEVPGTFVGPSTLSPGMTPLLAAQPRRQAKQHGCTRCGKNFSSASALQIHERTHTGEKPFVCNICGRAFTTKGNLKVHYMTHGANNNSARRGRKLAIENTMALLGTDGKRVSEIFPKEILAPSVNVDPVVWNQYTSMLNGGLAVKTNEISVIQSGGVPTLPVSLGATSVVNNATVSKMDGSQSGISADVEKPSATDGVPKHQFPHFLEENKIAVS
Notes: 8-mer, flanks averaged, mean of replicates
GTATTGTA: 0.266
AACGCTTC: 0.059
AATGAAGC: 0.076
AGTACAGC: -0.0899
CCGTGTAG: -0.124
TCTCGGCA: -0.235
GACTAAAA: 0.206
CAAACATC: 0.0842
TAAAATTA: 0.327
GGCTCTGA: -0.0711
AGGCCGTG: -0.305

Sample 2 — target: CCNB3, cyclin fold, Cln2 fusion (human); method: yeast growth competition, sequencing; matrix: yeast; notes: weak parent motif; baseline: not given; reading: higher = stronger binding; quantity: normalised enrichment score
Starting sequence: MICAL3 docking peptide (human); LQLRRQLSFSEDS
LQLRRQLSFSTDS [E11T]: 0.305
LQLRRQLSFSKDS [E11K]: 0.515
LQLRRQGSFSEDS [L7G]: 0.0406
LQLIRQLSFSEDS [R4I]: 0.111
LQSRRQLSFSEDS [L3S]: 0.207
LQLRRQLSFCEDS [S10C]: 0.181
LQLRRQLSFSEVS [D12V]: 0.398
LQLRGQLSFSEDS [R5G]: 0.212
LQLRRQLSFSMDS [E11M]: -0.0763
LQRRRQLSFSEDS [L3R]: 0.0963

Sample 3 — method: RNA Bind-n-Seq; molecule type: RNA; matrix: in vitro; concentration: not given; notes: RNA with constant flanks, ends assumed; baseline: input RNA pool; reading: higher = stronger binding; quantity: bound/input enrichment
Target: RING finger protein unkempt homolog, zinc fingers 1-6, GST-SBP tag (UNK, Homo sapiens, UniProt Q9C0B0, residues 30-357)
UniProt Q9C0B0, sequence (30-357, looked up): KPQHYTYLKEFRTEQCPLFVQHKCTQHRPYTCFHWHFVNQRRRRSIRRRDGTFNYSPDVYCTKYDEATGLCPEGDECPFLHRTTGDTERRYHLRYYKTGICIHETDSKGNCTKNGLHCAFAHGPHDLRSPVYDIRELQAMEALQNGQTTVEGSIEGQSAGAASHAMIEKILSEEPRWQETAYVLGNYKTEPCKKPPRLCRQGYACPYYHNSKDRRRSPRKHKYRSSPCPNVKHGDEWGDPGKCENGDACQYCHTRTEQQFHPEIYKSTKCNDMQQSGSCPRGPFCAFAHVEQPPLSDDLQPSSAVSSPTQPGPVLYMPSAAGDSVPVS
Constant ends, left off below: GGGAGUUCUACAGUCCGACGAUC … CAACAGAGGAUUGAGCAUCA
UCGGUACUUGAUUCAGCUCUUCAUCCACCACCCCGUGGACCUUUUCCUCCAGGAGAUAUUUUCCGUCAACCAGAAAGACCUUUUUUAGCUCCUGGAAGACAAAGCGUAGACAAUGUUACU: 0.178 ratio
CUUCAGCUGGUGUUGGUCUGGCUGGGAGAGGUGCUGGGUGUCAUUGGGGACUCCCCAGAGCCCGUUCAGCGGUCCUUCCUUGUGGCUAGUGUUCUGCCAGGUCCCGAUGGCAACGUUAAC: 0.138 ratio
CUAGAAUGUGAAUUUUACCUCUUAGAAUUAAUGGACUGUUGCUUGAUAGUGUAUCAUCCUUACCGACCUUUGCUCCAGUAUGUGCAGGACAUGGGCCAGGAAGACGUGCUGCUUCCCCUU: 1.67 ratio
GCCCGCCUUUUUCUCUCACACUUUGGAUUUUUGUCCUUAGAAGCACUGAAGGAACCUGCAAACCGUCGUCUACCUCCUCACCUUAUUGCACUUGAUUCCACGAUACCUGGAUUUUUUGAU: 0.389 ratio
GACCCUUACUUCCACGAUCGUGUUGCUUCCUUCUAUGAAGGUCAGGUUGCAAUAUGGGAUCUCCGAAAAUUUGAGAAGCCAGUUUUGACUUUGACUGAACAACCAAAGCCCUUGACAAAG: 0.198 ratio
UAGCCUGAGUAUACAAUCAAGCUUCAGUGUGCAACCUUUUUUUCUUUUGCCAUUUUCUAUUUCCGUAAUUUCCUUGGGGAACUAAAUAAUUUUGCAGAAUUUUUCCUAAUUUUGUUUAUC: 0.784 ratio

Other studies, line by line
PhoQ, residues 284 288 289 292 302 303 SLKLQV — fold induction (PhoP, residues 12 14 15 18 19 TQALL (Escherichia coli, UniProt P23836); Sort-seq, item: YFP reporter; E. coli; PhoQ-PhoP variant library, added: 10 µM Mg2+; baseline: high Mg2+ state, higher = stronger signaling): 13.3
